# Published values pooled from the literature.
# Parts stem from different laboratories: compare values within a part only. Substitutions count along the parent as printed.

# Set 1
# Target: CCNF, cyclin fold, Cln2 fusion (human)
# Technique: yeast growth competition, sequencing
# Sample: yeast
# Setting: strong parent motif
# Reference: not given
# Direction: higher = stronger binding
# Starting sequence: SAMHD1 docking peptide (human); ASKSRVQLFKDDP
Variant,normalised enrichment score
F9T,0.0869
S2Y,2.06
S2R,1.12
F9S,-0.14
K10P,2
S4K,0.692
D11W,0.409
S2K,1.06
K3N,0.986
D11K,0.768
K3D,0.263
F9N,0.355
D12G,1
Q7C,1.34
Q7P,-0.537

# Set 2
# Target: RING finger protein unkempt homolog, zinc fingers 1-6, GST-SBP tag (UNK, Homo sapiens, UniProt Q9C0B0, residues 30-357)
# Chain of UniProt Q9C0B0 (30-357, looked up): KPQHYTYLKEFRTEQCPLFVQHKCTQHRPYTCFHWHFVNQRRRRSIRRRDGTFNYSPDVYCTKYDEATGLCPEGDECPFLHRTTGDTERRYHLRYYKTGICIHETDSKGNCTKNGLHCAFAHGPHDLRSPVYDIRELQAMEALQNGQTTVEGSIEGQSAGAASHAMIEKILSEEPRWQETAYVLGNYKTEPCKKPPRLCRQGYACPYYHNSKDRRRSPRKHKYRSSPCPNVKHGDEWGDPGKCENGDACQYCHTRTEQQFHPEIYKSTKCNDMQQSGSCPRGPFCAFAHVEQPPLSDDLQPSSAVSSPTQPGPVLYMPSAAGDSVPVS
# Technique: RNA Bind-n-Seq
# Molecule type: RNA
# Sample: in vitro
# Concentration: not given
# Setting: RNA with constant flanks, human-mouse chimeric sites, ends assumed
# Reference: input RNA pool
# Direction: higher = stronger binding
# All sequences stand within: GGGAGUUCUACAGUCCGACGAUC … CAACAGAGGAUUGAGCAUCA
Oligonucleotide,bound/input enrichment [ratio]
AUAGAUGAAAUUGAUGUGGACCAGGAAGGAAUUGCAGAAAUGAUCCUGGAUGAAAAUGCUAUAGCUCAGGUCCCACGCCCUGGCACAUCUUUGAAGCUCCCUGGCACUAACCAAACAGGA,0.297
AAAGUGGACUAUGGCGAAUACAUGGAUAAAAACAAUGUGAGGCGGCAAGCAACAACAAUCAUAGCUGAUAAUAUUAUAUUUCUGAGUGACCAGACAAAAGAAAAGGCAUAGAACGGAUGA,5.39
GCUCCUCCCCGCUCUGCAGCCUGGGGACACUGGGCUGGGACCAGAAUCCAGCUUUCUUUUAAAACUCUAUAUUUUUUUGUAUCCCGUGACAUUUCAUUUUUUUUUUAUAGUGUAUUUUUU,20.6
UCAGUCUUUUUGUACAGCUUUGUAAAUUCUUAACAUUUUUAUAUUGCCAUGUUUAUUUUGUUUGGGUAAUUUGGUUCAUUAAGUACAUAGCUAAGGUAAUGAACAUCGUAAUUAUAGAUU,2.22
AUAGAUGAAAUUGAUGUGGACCAGGAAGGAAUUGCUGAAAUGAUCCUGGAUGAAAAUGCUAUUGCUCAGGUCCCACGCCCUGGAACGUCUUUGAAACUCCCUGGCACUAACCAAACAGGA,0.427
GUGACUGACAUUAAAAUUUCCCCUCAGCAAAGAAGUGCAGUAGUCACCAUAAUUCCAUCUGUGGUGAGUGCCAGUCAGAUUGUGGAGCUGGUUCCAGACCUCAGUUUAGACAUGGGAACU,0.196
UUCAAAGGCUGUGUUAUCUGUGUCAUUUCAUAAGUAACUCUGGGGGAGGGAAAUUCUAACUAGUUUGUUAAUUUUCCCCCAAAUGAAGCCAAAGUGUGUGUUGAAGAACUGAGAAAAAAU,0.92
AAUGUGGAACUAAGUUCCUUGGCCCGGCUUCCCAGCUUGAAUAAACUCCGGAAGUUGGAACUUAGUGACAAUAUAAUUUCUGGAGGCUUGGAAGUCCUGGCAGAGAAAUGUCCAAAUCUU,0.255

# Set 3
# Target: Histone acetyltransferase KAT6A, winged helix 2, GST fusion (KAT6A, Homo sapiens, UniProt Q92794, residues 85-181)
# Technique: protein binding microarray
# Molecule type: double-stranded DNA, one strand shown
# Sample: in vitro
# Concentration: not given
# Setting: 8-mer, flanks averaged, mean of 2 arrays, mostly near background
# Reference: not given
# Direction: higher = stronger binding
# Residues (chain): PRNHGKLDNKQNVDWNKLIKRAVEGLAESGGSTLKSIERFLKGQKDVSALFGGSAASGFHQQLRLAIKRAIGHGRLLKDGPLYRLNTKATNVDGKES
Oligonucleotide,E-score
CGACGTGA,-0.0273
CGTCTTTA,0.0806
TAAACTTA,-0.0178
CGTGATGC,-0.0932
ATCTAGAA,0.143
ACTCCTCT,-0.119
CGGAGCAG,0.109
CCCTGTCC,-0.0464
ATAACCTC,-0.185
CGGAATAC,0.0357
GCATGGCA,0.182
AGACGCGA,0.0804
TCGGTGCA,0.0838

# Set 4
# Target: Interferon regulatory factor 3, full length, phosphomimetic (IRF3, Homo sapiens, UniProt Q14653, residues 1-427, S386D/S396D/S398D/S402D/T404D/S405D)
# Technique: protein-binding microarray
# Molecule type: double-stranded DNA, one strand shown
# Sample: in vitro
# Concentration: 2540 nM top
# Setting: 60-bp whole probe
# Together with: salmon DNA 0.4 mg/ml
# Reference: random background probes
# Direction: higher = stronger binding
# All sequences stand within: GCCTAGCAC … GTCTTGATTCGCTTGACGCTGCTG
# Target sequence (chain): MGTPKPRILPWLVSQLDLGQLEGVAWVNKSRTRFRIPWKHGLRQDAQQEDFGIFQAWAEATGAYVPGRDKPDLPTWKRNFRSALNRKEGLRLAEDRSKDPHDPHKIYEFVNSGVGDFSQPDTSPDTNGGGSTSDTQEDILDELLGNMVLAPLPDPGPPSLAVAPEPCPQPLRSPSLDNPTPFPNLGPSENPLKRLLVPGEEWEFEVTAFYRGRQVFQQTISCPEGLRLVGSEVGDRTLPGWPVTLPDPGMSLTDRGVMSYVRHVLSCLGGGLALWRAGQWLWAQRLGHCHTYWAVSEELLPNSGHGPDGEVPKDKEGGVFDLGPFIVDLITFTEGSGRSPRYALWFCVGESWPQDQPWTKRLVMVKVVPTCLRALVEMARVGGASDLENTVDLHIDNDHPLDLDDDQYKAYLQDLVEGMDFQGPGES
Oligonucleotide,fitted relative affinity [z-score]
GACGGTCTCGGTCTCCGGACGTGCTAG,1.51
TCACCTTTACATTCCCCACTGTGCTAG,1.76
GTCGGTCTCGGTCTCGGGACGTGCTAG,2.53
GACGGTTTCGACTTCCGGGACGTGCTA,3.75
GACGGCCTGGACTTTCGGGACGTGCTA,-0.419
GACGATTTCAGTACCGAGACGTGCTAG,1.57
TTAGAACTGGGGTATCTATTAGTGCTA,-0.392
GACGGTATCGGGTCTCGGGACGTGCTA,2.94
ATCTTCATGAAATTTTAATAAGTGCTA,0.26
GACGGTTTCCTAATCCTGACGTGCTAG,6.95
TTAGGACTGGACAATGGGTTAGTGCTA,-0.658
TTAGGTATCGGTTTCGGGTAGTGCTAG,6.84
TTAGGTATCGGGACTGGGTAAGTGCTA,1.39
TCACTTTCCACTTGTCTTACTGTGCTA,4.24
TTTGAACTGAGACTGGATTAGTGCTAG,-0.443
AACATACTGATTTCCACTTTGTGCTAG,1.43
CTTCTCCTCCAGGTTCTCTGAGTGCTA,3.31
TCACACATTTTTTTCATACTGTGCTAG,0.572
TTAGGTTTACTTTTCCTTTAGTGCTAG,4.13

# Other studies, line by line
Substance,target,assay,test system,conditions,how to read,measurement,result
"PhoQ, residues 284 288 289 292 302 303 SVTLVV","PhoP, residues 12 14 15 18 19 TQCLL (Escherichia coli, UniProt P23836)","Sort-seq, item: YFP reporter",E. coli,"PhoQ-PhoP variant library, together with: 10 µM Mg2+","reference: high Mg2+ state, higher = stronger signaling",fold induction,5.94

# Some of these lines once more (set 1):
Variant,normalised enrichment score
D12G,1
S2R,1.12
K3N,0.986
F9S,-0.14
Q7C,1.34
